{"data": "Results pooled from the literature", "note": "Every numbered part comes from another study and shows a few of its results, in no order. Several values in a cell are separate wells, animals, samples, runs or records. ± gives the spread as reported.", "sequence of UniProt Q12851 (whole entry, looked up)": "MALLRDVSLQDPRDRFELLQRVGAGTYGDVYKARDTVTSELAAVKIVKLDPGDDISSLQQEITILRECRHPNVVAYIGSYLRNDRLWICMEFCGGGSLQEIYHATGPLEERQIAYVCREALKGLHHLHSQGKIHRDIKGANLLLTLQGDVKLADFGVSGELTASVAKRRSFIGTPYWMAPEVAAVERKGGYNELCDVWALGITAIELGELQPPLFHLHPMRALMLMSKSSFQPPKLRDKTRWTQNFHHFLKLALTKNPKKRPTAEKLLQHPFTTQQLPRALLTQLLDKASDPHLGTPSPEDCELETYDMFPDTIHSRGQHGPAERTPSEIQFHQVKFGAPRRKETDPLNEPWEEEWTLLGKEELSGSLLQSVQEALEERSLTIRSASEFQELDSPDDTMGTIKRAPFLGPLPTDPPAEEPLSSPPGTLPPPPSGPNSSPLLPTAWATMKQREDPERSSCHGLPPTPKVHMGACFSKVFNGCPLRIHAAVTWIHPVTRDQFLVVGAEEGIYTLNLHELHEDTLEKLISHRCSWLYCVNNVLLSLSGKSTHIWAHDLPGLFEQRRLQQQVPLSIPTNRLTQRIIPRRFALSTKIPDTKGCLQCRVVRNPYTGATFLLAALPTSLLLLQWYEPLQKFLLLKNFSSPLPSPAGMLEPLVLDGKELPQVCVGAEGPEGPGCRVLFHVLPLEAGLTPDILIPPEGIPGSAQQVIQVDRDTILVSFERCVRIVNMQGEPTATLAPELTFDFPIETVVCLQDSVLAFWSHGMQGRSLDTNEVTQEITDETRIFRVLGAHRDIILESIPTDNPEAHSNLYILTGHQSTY", "sequence of UniProt P48730 (whole entry, looked up)": "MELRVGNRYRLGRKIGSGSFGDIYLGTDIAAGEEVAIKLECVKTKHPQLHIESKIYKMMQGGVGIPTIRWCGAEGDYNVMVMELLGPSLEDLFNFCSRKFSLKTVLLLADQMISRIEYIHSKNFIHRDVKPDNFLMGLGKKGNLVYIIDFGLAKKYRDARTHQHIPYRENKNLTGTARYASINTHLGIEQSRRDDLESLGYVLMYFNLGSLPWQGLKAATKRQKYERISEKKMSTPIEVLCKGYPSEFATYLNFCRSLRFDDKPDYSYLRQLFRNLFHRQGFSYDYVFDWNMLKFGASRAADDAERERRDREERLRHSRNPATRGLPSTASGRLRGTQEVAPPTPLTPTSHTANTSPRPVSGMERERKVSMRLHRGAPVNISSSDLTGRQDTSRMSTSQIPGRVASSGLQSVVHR"}
{"data": "Sample 1", "Structure (SMILES)": "C[C@@H]1CN(c2ccc(-c3cc(C(=O)NCCOCCOCCOCCOCCNC(=O)/C=C/c4[nH]cc(C(=O)N[C@@H](CC(N)=O)c5ccc(F)c(Cl)c5)c4-c4ccc(Cl)cc4F)ccc3F)cc2NC(=O)c2c[nH]c(=O)cc2C(F)(F)F)C[C@H](C)N1C", "read-out": "thermal unfolding", "technique": "differential scanning fluorimetry", "concentration": "5.5 µM", "reading": "higher = more unfolded", "DCAF1": "DDB1- and CUL4-associated factor 1 (DCAF1, Homo sapiens, UniProt Q9Y4B6)", "sequence of UniProt Q9Y4B6 (whole entry, looked up)": "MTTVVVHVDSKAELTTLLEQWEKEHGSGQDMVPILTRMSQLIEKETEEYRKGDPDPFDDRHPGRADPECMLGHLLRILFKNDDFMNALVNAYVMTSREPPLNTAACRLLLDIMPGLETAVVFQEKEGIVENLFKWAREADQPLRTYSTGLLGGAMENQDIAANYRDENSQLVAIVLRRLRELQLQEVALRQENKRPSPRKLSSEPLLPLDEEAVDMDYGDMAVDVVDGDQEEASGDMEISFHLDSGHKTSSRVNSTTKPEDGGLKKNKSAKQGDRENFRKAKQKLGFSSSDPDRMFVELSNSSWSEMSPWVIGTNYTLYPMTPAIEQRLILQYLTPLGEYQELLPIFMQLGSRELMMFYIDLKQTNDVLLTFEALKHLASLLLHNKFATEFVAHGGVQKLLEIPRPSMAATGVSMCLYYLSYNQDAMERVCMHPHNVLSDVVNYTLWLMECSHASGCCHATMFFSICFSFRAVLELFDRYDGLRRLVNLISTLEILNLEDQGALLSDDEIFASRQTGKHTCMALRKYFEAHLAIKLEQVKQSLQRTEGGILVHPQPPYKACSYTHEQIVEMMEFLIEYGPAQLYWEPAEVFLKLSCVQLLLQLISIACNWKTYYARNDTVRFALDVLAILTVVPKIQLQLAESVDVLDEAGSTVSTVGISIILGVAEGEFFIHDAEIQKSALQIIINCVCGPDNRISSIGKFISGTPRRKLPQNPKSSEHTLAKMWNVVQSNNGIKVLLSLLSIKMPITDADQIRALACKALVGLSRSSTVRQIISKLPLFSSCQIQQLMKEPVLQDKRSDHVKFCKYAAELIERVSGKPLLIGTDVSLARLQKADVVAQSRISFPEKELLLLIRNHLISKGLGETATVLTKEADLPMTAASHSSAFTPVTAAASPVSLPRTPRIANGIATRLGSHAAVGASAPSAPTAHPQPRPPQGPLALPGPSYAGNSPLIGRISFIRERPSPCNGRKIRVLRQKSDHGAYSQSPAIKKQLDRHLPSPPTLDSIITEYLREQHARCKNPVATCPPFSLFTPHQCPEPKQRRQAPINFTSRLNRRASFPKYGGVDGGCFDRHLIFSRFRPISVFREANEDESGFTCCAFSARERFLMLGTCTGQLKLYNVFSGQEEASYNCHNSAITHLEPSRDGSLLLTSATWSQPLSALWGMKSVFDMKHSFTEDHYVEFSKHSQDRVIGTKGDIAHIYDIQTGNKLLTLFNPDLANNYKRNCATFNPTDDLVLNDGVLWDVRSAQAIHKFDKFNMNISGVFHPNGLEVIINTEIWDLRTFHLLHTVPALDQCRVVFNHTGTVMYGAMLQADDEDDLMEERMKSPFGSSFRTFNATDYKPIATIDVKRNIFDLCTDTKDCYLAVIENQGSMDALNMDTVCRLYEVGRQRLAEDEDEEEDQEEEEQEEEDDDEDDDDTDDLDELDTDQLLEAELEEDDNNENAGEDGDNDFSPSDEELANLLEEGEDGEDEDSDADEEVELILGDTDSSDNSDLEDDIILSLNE"}
{"target": "WDR5 (Homo sapiens, UniProt P61964)", "setting": "86.01 °C", "SYPRO Orange fluorescence [a.u.]": 53300}
{"target": "DCAF1", "setting": "54.61 °C", "SYPRO Orange fluorescence [a.u.]": 20700}
{"target": "DCAF1", "setting": "51.2 °C", "SYPRO Orange fluorescence [a.u.]": 16200}
{"target": "DCAF1", "setting": "25 °C", "SYPRO Orange fluorescence [a.u.]": 9030}
{"target": "DCAF1", "setting": "82.81 °C", "SYPRO Orange fluorescence [a.u.]": 42400}
{"target": "DCAF1", "setting": "91.41 °C", "SYPRO Orange fluorescence [a.u.]": 33600}
{"target": "DCAF1", "setting": "25.2 °C", "SYPRO Orange fluorescence [a.u.]": 9010}
{"target": "DCAF1", "setting": "71.21 °C", "SYPRO Orange fluorescence [a.u.]": 54300}
{"target": "DCAF1", "setting": "76.21 °C", "SYPRO Orange fluorescence [a.u.]": 48700}
{"target": "DCAF1", "setting": "84.21 °C", "SYPRO Orange fluorescence [a.u.]": 41100}
{"target": "DCAF1", "setting": "28.6 °C", "SYPRO Orange fluorescence [a.u.]": 9160}
{"data": "Sample 2", "Compound": "COc1cc(-c2nc3ccc(C(=O)NCCCN(C)C)cc3n2C2CCC2)cc(OC)c1OC", "technique": "NanoBRET", "concentration": "1 µM"}
{"target": "MAP3K9 (Homo sapiens, UniProt P80192)", "target occupancy [%]": 5.45}
{"target": "TIE1 (Homo sapiens, UniProt P35590)", "target occupancy [%]": 10.1}
{"target": "CSNK1D (Homo sapiens, UniProt P48730)", "target occupancy [%]": -0.75}
{"target": "BRSK1 (Homo sapiens, UniProt Q8TDC3)", "target occupancy [%]": -1.12}
{"target": "TEK (Homo sapiens, UniProt Q02763)", "target occupancy [%]": 5.73}
{"target": "Cyclin-dependent kinase 17, with cyclin Y (CDK17, Homo sapiens, UniProt Q00537)", "target occupancy [%]": -3.83}
{"target": "EPHB1 (Homo sapiens, UniProt P54762)", "target occupancy [%]": 0.48}
{"target": "ERN1 (Homo sapiens, UniProt O75460)", "target occupancy [%]": -3.49}
{"target": "MST1R (Homo sapiens, UniProt Q04912)", "target occupancy [%]": 1.69}
{"target": "MAP4K2 (Homo sapiens, UniProt Q12851)", "target occupancy [%]": 2.17}
{"target": "NEK5 (Homo sapiens, UniProt Q6P3R8)", "target occupancy [%]": 3.11}
{"target": "MARK2 (Homo sapiens, UniProt Q7KZI7)", "target occupancy [%]": 0.52}
{"target": "RPS6KA2 (Homo sapiens, UniProt Q15349)", "target occupancy [%]": 3.25}
{"target": "IRAK3 (Homo sapiens, UniProt Q9Y616)", "target occupancy [%]": 1.23}
{"data": "Sample 3", "target": "Sodium-dependent neutral amino acid transporter B(0)AT1 (SLC6A19, Homo sapiens, UniProt Q695T7)", "action": "inhibitor", "technique": "FLIPR membrane potential", "cells": "CHO-BC cells", "sequence of UniProt Q695T7 (whole entry, looked up)": "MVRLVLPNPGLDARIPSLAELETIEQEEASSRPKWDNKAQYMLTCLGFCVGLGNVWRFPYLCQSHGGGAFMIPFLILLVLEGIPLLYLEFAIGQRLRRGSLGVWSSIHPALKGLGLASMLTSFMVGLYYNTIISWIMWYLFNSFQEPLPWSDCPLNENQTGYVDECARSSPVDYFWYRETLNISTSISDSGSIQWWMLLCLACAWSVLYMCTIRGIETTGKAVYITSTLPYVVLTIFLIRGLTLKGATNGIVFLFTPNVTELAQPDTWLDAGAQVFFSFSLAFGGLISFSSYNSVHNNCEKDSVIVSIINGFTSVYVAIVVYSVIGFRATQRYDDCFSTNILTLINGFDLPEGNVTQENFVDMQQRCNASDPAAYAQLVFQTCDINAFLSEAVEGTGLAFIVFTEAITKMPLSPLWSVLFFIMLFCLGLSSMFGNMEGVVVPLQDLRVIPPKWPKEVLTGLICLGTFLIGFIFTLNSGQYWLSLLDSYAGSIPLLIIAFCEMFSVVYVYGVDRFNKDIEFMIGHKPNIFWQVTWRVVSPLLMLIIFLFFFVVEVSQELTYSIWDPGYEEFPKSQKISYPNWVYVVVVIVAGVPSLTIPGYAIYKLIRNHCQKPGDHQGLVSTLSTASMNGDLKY"}
{"Compound": "CNC(=O)COc1cc(C)c(Cl)c(C)c1", "IC50 [µM]": "26.7 ± 8.6"}
{"Compound": "CC(C)NC(=O)COc1ccc(Cl)cc1", "IC50 [µM]": "36.4 ± 33.3"}
{"Compound": "CC(C)NC(=O)COc1ccc(I)cc1", "IC50 [µM]": "5.3 ± 0.551"}
{"Compound": "CC(C)NC(=O)COc1ccc(Br)cc1", "IC50 [µM]": "12.5 ± 3.31"}
{"Compound": "CCCNC(=O)COc1cc(C)c(Cl)c(C)c1", "IC50 [µM]": "4.91 ± 0.628"}
{"Compound": "CCNC(=O)COc1cc(C)c(Cl)c(C)c1", "IC50 [µM]": "2.66 ± 0.405"}
{"Compound": "Cc1cc(OCC(=O)NC(C)C)ccc1Cl", "IC50 [µM]": "1.63 ± 0.168"}
{"data": "Sample 4", "SMILES": "O=c1[nH]c(=S)n(C[C@H]2CCCO2)c2nc[nH]c12", "MPO": "Myeloperoxidase (MPO, Homo sapiens, UniProt P05164)", "AOC3": "Amine oxidase [copper-containing] 3 (AOC3, Homo sapiens, UniProt Q16853)", "sequence of UniProt Q16853 (whole entry, looked up)": "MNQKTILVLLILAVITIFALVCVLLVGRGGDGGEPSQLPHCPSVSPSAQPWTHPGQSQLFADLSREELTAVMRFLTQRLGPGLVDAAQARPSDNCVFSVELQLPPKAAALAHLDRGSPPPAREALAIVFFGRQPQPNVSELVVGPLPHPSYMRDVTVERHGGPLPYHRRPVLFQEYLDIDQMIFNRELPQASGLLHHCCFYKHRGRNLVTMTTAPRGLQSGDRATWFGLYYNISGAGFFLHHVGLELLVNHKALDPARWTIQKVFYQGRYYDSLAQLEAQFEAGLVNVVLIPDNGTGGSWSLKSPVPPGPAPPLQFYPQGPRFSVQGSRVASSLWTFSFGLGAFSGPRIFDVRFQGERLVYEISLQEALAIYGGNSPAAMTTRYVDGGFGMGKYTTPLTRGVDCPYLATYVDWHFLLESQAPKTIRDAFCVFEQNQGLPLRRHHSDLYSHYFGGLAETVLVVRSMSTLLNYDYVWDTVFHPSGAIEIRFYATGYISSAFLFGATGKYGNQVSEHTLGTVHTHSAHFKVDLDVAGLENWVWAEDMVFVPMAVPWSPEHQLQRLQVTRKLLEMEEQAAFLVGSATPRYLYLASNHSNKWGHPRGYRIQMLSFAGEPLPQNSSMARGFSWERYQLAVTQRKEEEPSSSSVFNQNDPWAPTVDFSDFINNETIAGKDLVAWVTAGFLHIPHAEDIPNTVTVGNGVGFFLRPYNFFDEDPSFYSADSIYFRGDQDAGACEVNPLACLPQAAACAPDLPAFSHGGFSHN", "sequence of UniProt P05164 (whole entry, looked up)": "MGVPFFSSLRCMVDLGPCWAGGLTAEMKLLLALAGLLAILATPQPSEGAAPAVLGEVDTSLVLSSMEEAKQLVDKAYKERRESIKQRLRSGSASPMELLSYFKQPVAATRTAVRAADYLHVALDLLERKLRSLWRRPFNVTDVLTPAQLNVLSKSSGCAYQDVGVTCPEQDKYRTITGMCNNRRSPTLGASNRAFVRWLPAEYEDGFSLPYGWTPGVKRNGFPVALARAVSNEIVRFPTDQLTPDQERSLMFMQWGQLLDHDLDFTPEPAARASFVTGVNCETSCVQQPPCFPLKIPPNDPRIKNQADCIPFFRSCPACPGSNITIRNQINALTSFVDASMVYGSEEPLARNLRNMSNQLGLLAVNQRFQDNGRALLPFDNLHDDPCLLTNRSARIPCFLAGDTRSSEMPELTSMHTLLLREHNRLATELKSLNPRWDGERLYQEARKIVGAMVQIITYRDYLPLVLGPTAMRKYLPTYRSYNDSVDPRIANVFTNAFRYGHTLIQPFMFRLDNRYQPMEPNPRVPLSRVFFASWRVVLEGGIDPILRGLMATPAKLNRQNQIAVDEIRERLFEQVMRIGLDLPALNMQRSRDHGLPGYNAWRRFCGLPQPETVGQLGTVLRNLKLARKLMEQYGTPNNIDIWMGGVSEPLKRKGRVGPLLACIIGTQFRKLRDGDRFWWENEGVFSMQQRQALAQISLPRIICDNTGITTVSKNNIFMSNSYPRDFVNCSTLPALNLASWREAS"}
{"target": "MPO", "assay": "Amplex Red", "setting": "0.3704 µM", "inhibition": "90.8%"}
{"target": "AOC3", "assay": "enzyme activity, Amplex Red H2O2 production", "setting": "0.0005 µM", "inhibition": "6.3%"}
{"target": "MPO", "assay": "Amplex Red", "setting": "30 µM", "inhibition": "101%"}
{"target": "MPO", "assay": "enzyme activity", "setting": "0.0008 µM", "inhibition": "-15% and -9.71% and -22.1% and -1.68% and -15.2% and -10.4% and 15.2%"}
{"target": "AOC3", "assay": "enzyme activity, Amplex Red H2O2 production", "setting": "0.0412 µM", "inhibition": "13.1%"}
{"target": "AOC3", "assay": "enzyme activity, Amplex Red H2O2 production", "setting": "0.1235 µM", "inhibition": "8.67%"}
{"target": "AOC3", "assay": "enzyme activity, Amplex Red H2O2 production", "setting": "0.0046 µM", "inhibition": "8.65%"}
{"target": "MPO", "assay": "enzyme activity, inhibitor, fluorescence", "setting": "0.1235 µM", "inhibition": "52.5% and 81.7% and 67.8% and 71.4% and 59.5% and 69.9%"}
{"note": "For quick reference, copied from above (sample 3):"}
{"Compound": "CC(C)NC(=O)COc1ccc(Cl)cc1", "IC50 [µM]": "36.4 ± 33.3"}
{"Compound": "CC(C)NC(=O)COc1ccc(I)cc1", "IC50 [µM]": "5.3 ± 0.551"}
{"Compound": "CC(C)NC(=O)COc1ccc(Br)cc1", "IC50 [µM]": "12.5 ± 3.31"}
{"Compound": "CCCNC(=O)COc1cc(C)c(Cl)c(C)c1", "IC50 [µM]": "4.91 ± 0.628"}
{"Compound": "CCNC(=O)COc1cc(C)c(Cl)c(C)c1", "IC50 [µM]": "2.66 ± 0.405"}
{"Compound": "Cc1cc(OCC(=O)NC(C)C)ccc1Cl", "IC50 [µM]": "1.63 ± 0.168"}
